Measured values pooled from the literature.
Each numbered part is a random draw from the data of one study; scales do not carry over between parts.

Sample 1
Target: Fragile X messenger ribonucleoprotein 1, C-terminal low-complexity region (Fmr1, Mus musculus, UniProt P35922)
Method: RNA Bind-n-Seq
Form: RNA
Medium: in vitro
Concentration: 200 nM
Notes: whole 134-nt RNA, ends assumed
Together with: 150 mM KCl
Reference: input library
Direction: higher = stronger binding
Endpoint: log2 enrichment
Constant ends, left off below: GGGAGUUCUACAGUCCGACGAUC … UGGAAUUCUCGGGUGUCAAGG
AAGUCCUGUGCUACACAUCGUAUGUACCGAAUCGGGGAAAGGGGAAAGGGGUGGGGAAAGUAUUAUGUUACGCCGUUCGGAUCUGCACUU: 0.462
CACAGACAACACGCACCCACACAGACACAGAGGGAAGGGGUUGGGAUGGGGACAGGGUGCACAGCAGGGCGGGGUAGGACCCCGGCCCCU: 1.39
UCAAGUCCUGUGCUACACAUCGUAUGUACCGAAUCGGAAAAAAAGGUUUGGAGGAAAGUAUUAUGUUACGCCGUUCGGAUCUGCACUUCC: -1.03
UCCUGUGCUACACAUCGUAUGUACCGAAUCAAAGUGUGUGUGUGAAAUGUGUGUGUGAAAAAAGUAUUAUGUUACGCCGUUCGGAUCUGC: 0.0234
ACCAUGCAGGUGGGAAACUUUGGGAAGUGGGGCAAGGGGGGGAUAGGGAGGGGGGUAACACUUUGGGAACAGGUGGUCCCAGGUCGUUUC: 0.416
CCUGUGCUACACAUCGUAUGUACCGAAUCGGGGUUUUUUUGGGGUUUUUGGGGAAAGGGGAAAGUAUUAUGUUACGCCGUUCGGAUCUGC: 0.412
CUCAAGUCCUGUGCUACACAUCGUAUGUACCGAAUCGGGGAGGGGAGGGGAGGGAAAGUAUUAUGUUACGCCGUUCGGAUCUGCACUUCC: 1.17
CUGUGCUACACAUCGUAUGUACCGAAUCAAAGUGUGUGUGUGUGUAAAGUGUGUGUGUAAAAAAGUAUUAUGUUACGCCGUUCGGAUCUG: -0.803
GCAGGAAGUAAAAACAAAUGGAAAUGCUUCGGAUAGUGGCAGGGGUGGGGGUUGCUAAGGAAAGGGUGGGAAGGGAGUGGGUAAAGAGUU: 0.0648
CAAGUCCUGUGCUACACAUCGUAUGUACCGAAUCGGGUUGGGGUUGGGGUUGGGGAAAGUAUUAUGUUACGCCGUUCGGAUCUGCACUUC: 1.31
AGUCCUGUGCUACACAUCGUAUGUACCGAAUCAAACCCAAACCCCCCCAAAUUUAAAAAAGUAUUAUGUUACGCCGUUCGGAUCUGCACU: -0.202
ACCAUGCAGCUGGGCAUCUUUGGGAAGUGGGGCAAGGGGGGGAUAGGGAGGGGGGUAACACUUUGGGAACAGGUGGUCCCAGGUCGUUUC: 1.15
UCCUCAAGUCCUGUGCUACACAUCGUAUGUACCGAAUCGGAGGUGGAAAGGAAAGUAUUAUGUUACGCCGUUCGGAUCUGCACUUCCAGC: -0.57
AAGUCCUGUGCUACACAUCGUAUGUACCGAAUCGGGUUUUGGUUUUGGUUUUGGGGAAAGUAUUAUGUUACGCCGUUCGGAUCUGCACUU: -0.614

Sample 2
Target: Prothrombin, mature alpha-thrombin (F2, Homo sapiens, UniProt P00734)
Method: aptamer microarray, sandwich
Form: DNA with 2'F-ANA
Medium: in vitro
Concentration: 200 nM
Notes: whole 15-mer aptamer, many near background
Together with: Cy3 exosite-II aptamer, 400 nM
Direction: higher = stronger binding
Endpoint: mean fluorescence intensity
Strand: GGTTGGTGTGGTTGG
2'F-ANA at 2 5 6 7 11 13 14: 44.4 a.u.
2'F-ANA at 3 4 5 6: 90.5 a.u.
2'F-ANA at 1 2 3 9 12 14 15: 105 a.u.
2'F-ANA at 5 7 8 11 12 13: 118 a.u.
2'F-ANA at 3 4 5 8 10 12 13 15: 53.5 a.u.
2'F-ANA at 2 4 6 7 8 10 14: 58.9 a.u.
2'F-ANA at 3 4 5 6 7 10 11 12 13 15: 85.5 a.u.
2'F-ANA at 3 6 8 9 10 11 12 14: 342 a.u.
2'F-ANA at 2 3 4 9 11 13 14: 258 a.u.
2'F-ANA at 1 3 5 6 10 11 12 15: 49.7 a.u.
2'F-ANA at 2 3 4 8 9 14 15: 289 a.u.
2'F-ANA at 2 4 5 6 7 8 9 10 13 14: 50.5 a.u.
2'F-ANA at 1 2 3 4 5 10 11 12 14 15: 52.8 a.u.
2'F-ANA at 1 4 5 10 11 14: 41.9 a.u.
2'F-ANA at 2 3 5 6 7 11 12 13: 104 a.u.
2'F-ANA at 1 2 3 4 5 7 8 11 12 13 14 15: 48.5 a.u.
2'F-ANA at 1 5 6 11 14 15: 46.5 a.u.
2'F-ANA at 2 5 8 9 12 13 14: 67.1 a.u.

Sample 3
Target: RNA binding protein fox-1 homolog 2, RRM domain, GST-SBP tag (RBFOX2, Homo sapiens, UniProt O43251-10, residues 100-194)
Method: RNA Bind-n-Seq
Form: RNA
Medium: in vitro
Concentration: 365 nM
Notes: natural RNA segment, single round, ends assumed
Reference: no-protein control
Direction: higher = stronger binding
Endpoint: RBNS enrichment (R)
Constant ends, left off below: GGGAGUUCUACAGUCCGACGAUC … UGGAAUUCUCGGGUGCCAA
Construct (chain): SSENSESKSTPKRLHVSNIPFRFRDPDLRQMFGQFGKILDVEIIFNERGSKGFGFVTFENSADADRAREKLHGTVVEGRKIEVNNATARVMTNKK
UUCUGGAGAGAUCUCACGUGGAUGGUACCGGUGCUCUGAGCACCACAGAUGUGAGCUACAGUUCGUUUCUGAAAGCUACCACAAGCUGGAAACUGGUGAUCAGUGUGGGG: 0.299
UGCCUGCAUGGGAAGAGGUGGACAUCUGCAUCUUCCAUUGGUGGUCAAGGAUGGGUGUGGGAGAACCACACCUAGUGCAAGCCUGGUACUCAGUAAAUAUUUGUUGAAAU: 6.37
GUCCAGUUUCAAGGCAUGUACAAUAAGCAUGGAGUCGUAUUGAUGAGGACUUACCUCCUGAAGAUAUGCUUGUUGCUUUAUGAUAUAUGUAAACUAUUCUUUAGAAAAAU: 2.76
CUUAAGCAGGGAAGAUAAGAGACCCUGCUCUCCACAGGUUGGUACAAAGGGGAACCUUGCUUCUGUGGUAGUAGAGGAGCAUUGUGCCUGGAAUUUCAGGAACUAUUGGA: 0.337
AGGUAGAUGUGUAACCUCUUCACCUUAUUCAUGGCUGAAGUCACCUCUUGGUUACAGUAGCGUAGCGUGCCCGUGUGCAUGUCCUUUGCGCCUGUGACCACCACCCCAAC: 0.59
UAUUCUUAAUAUCCUUUUAAGAAUAUGGAGAUGAAGAUUGUUUUCUCCAAUUUUCUGUGCCAUUUUAAAUUUAACUUUGACAUCCAGCUAUAGACAGAAAUAAUAAGCCA: 0.603
UUUAAUACAUAAAUGAACGGGUACUGGUGCCUCUUUAUUUUUAAAAAUUUGAAGAAAAAGAGCCACCUCAUAUUCAUAGAGUGUGUAUUUUGUGAGUGUGUGAGCAUUUG: 0.309
UAUAAUACUAAAAUGUAACUUUUUAAUCAUCUGGUUUUUAAAAGAUAAACAGUUUAGCCCAUCUCUCCAGAGAGCAAACAUAGGAAUAUGACUCAGGAGCCUCCUAGGGC: 0.279
GGACGACAUGACGACGUGCCUUUUCAUUUUACAUCCUCUGUCCCCUAGGGUAAGUUUUUCAGCAUUAAAUAAAACAUUUCAAAUAUACUGUAAAUGGCUUUAGUUGUAAA: 0.393
UCGAUUUCAUGUCUGGGAGCCUGGACCAGGCUACCCGGGAAGUCAGGACCCUGAUCAUUCACUGUGACACCCCAGCCCUCCAAGGGUACCCCGGGAGACCACGUGACUCU: 0.198
GAGGACCUAUCCCAAAUGUGGAAUUGACUGCCUAUGCCAAGUCCCUGGAAAAGGAGCUUCAGUAUUGUGGGGCUCAUAAAACAUGAAUCAAGCAAUCCAGCCUCAUGGGA: 0.501
AAACAGAAUCAGAUGUGUAAUAUACUUGGCACAGCGAAAAAAUGGAUUUAAAAGACAAAAAUGGAGGUCCAGGUAGAUGUAAUUCACACAGACUGAAAGUGAGUUCGGGC: 0.423

Sample 4
Target: Histone acetyltransferase KAT6A, winged helix 1, GST fusion (KAT6A, Homo sapiens, UniProt Q92794, residues 1-85)
Method: protein binding microarray
Form: double-stranded DNA, one strand shown
Medium: in vitro
Concentration: not given
Notes: 8-mer, flanks averaged, mean of 2 arrays, mostly near background
Reference: not given
Direction: higher = stronger binding
Endpoint: E-score
Target sequence (chain): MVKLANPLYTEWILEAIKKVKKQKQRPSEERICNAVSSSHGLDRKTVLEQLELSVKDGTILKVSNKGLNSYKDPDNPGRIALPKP
CAATTCGA: -0.2
AGTCCCAA: -0.201
TGGTCTAA: -0.167
GGAGCGCA: 0.32
ATAGATAA: -0.0874
CTCGACCC: 0.106
AGCCGCAA: 0.172
CCAAGTTA: -0.0947
GGATTGCC: 0.058
GAGAAGTA: -0.0427
CTCGCTAC: -0.115
ACATCATA: -0.102
CTGGTAGC: -0.104
GGCCAACA: -0.0758
AAGACCTC: -0.00821
GCCAGAGC: -0.0119
ACACGCAG: 0.00479
GCACTGAC: 0.0036

Sample 5
Target: Sal-like protein 4, full length isoform A (SALL4, Homo sapiens, UniProt Q9UJQ4, residues 1-1053)
Sequence of UniProt Q9UJQ4 (whole entry, looked up): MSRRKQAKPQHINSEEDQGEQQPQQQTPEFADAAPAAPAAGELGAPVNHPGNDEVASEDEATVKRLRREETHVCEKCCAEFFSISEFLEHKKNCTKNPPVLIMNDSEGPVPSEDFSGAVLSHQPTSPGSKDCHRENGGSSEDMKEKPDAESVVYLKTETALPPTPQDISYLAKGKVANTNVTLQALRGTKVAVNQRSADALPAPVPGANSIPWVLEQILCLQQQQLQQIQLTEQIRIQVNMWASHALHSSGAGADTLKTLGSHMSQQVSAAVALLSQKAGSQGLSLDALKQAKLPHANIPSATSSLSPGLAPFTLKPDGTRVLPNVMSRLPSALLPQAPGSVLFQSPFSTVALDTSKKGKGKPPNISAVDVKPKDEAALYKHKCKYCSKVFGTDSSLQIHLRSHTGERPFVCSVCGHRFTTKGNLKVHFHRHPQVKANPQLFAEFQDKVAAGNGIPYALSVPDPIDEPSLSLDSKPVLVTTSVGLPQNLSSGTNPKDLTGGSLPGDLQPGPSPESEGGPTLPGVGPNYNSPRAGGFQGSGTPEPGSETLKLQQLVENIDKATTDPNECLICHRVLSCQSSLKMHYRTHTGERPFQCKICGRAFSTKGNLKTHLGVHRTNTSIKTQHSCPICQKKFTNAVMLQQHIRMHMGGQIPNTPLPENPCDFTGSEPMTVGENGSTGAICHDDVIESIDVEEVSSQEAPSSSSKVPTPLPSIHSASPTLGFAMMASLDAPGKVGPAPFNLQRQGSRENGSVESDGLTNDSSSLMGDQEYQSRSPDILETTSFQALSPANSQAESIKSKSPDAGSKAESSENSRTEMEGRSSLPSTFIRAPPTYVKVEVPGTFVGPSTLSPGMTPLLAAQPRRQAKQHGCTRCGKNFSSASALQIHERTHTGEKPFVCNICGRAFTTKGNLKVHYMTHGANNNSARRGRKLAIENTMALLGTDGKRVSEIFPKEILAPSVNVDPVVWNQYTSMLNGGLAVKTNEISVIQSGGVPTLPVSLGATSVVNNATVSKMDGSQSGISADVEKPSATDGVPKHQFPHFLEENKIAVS
Method: universal PBM
Form: double-stranded DNA, one strand shown
Medium: in vitro
Concentration: 600 nM
Notes: 8-mer, flanks averaged, mean of replicates
Direction: higher = stronger binding
Endpoint: E-score
AAAAGCAC: -0.0244
GATTTGCA: 0.123
TACGCTAA: 0.152
ACAGACCA: -0.117
AGTGCGAC: -0.247
GGAAGTAA: 0.101
ATTCGTTG: 0.0128
AGAAAAGA: 0.139
CCCTATCA: -0.119
CGGATCTC: -0.202
ACGCCGGA: -0.337
ATCTAGGG: 0.145
AGATCGCA: -0.0985
CTCAACGC: -0.334
AGATGTTG: -0.0723
CCTTGGGC: -0.351

Sample 6
Target: PABPC1L2, full length, GST fusion (mouse, UniProt A0ABA7IW68)
Method: RNAcompete
Form: RNA
Medium: in vitro
Concentration: 20 nM
Notes: 7-mer, probes averaged, single round
Reference: mean of 7-mers
Direction: higher = stronger binding
Endpoint: 7-mer Z-score
Residues (chain): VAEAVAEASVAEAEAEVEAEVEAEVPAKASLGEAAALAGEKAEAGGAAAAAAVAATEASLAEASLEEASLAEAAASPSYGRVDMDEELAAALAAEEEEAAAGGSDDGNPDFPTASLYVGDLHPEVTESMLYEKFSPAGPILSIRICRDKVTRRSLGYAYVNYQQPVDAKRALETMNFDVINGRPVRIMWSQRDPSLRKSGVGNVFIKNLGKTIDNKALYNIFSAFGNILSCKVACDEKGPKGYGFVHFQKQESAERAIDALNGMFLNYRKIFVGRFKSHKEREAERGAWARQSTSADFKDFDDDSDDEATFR
AAUUUUG: 0.0315
UGUCUUA: -0.427
CGUUGGG: -0.00108
UAACGCA: -0.0283
UUACGCA: -0.191
GUUGACA: -0.00833
CGGAUCG: -0.164
UUACAGC: -0.188
UUUAUUA: -0.0935
CGAUCGU: -0.238
AUUGGAC: 0.0152
UGCGUGA: -0.253
UGCCUGA: -0.133
GUGUAUA: -0.0754
CCGAUAA: 0.358
GGGCUCC: -0.0264
UAGCCUG: -0.22
UUAACCU: -0.237
GUUCCGC: -0.336
GAUCCCU: -0.362
GUUAUUU: -0.199

Repeated from above (sample 1):
AAGUCCUGUGCUACACAUCGUAUGUACCGAAUCGGGGAAAGGGGAAAGGGGUGGGGAAAGUAUUAUGUUACGCCGUUCGGAUCUGCACUU: 0.462
CACAGACAACACGCACCCACACAGACACAGAGGGAAGGGGUUGGGAUGGGGACAGGGUGCACAGCAGGGCGGGGUAGGACCCCGGCCCCU: 1.39
UCAAGUCCUGUGCUACACAUCGUAUGUACCGAAUCGGAAAAAAAGGUUUGGAGGAAAGUAUUAUGUUACGCCGUUCGGAUCUGCACUUCC: -1.03
UCCUGUGCUACACAUCGUAUGUACCGAAUCAAAGUGUGUGUGUGAAAUGUGUGUGUGAAAAAAGUAUUAUGUUACGCCGUUCGGAUCUGC: 0.0234
ACCAUGCAGGUGGGAAACUUUGGGAAGUGGGGCAAGGGGGGGAUAGGGAGGGGGGUAACACUUUGGGAACAGGUGGUCCCAGGUCGUUUC: 0.416
CCUGUGCUACACAUCGUAUGUACCGAAUCGGGGUUUUUUUGGGGUUUUUGGGGAAAGGGGAAAGUAUUAUGUUACGCCGUUCGGAUCUGC: 0.412
CUCAAGUCCUGUGCUACACAUCGUAUGUACCGAAUCGGGGAGGGGAGGGGAGGGAAAGUAUUAUGUUACGCCGUUCGGAUCUGCACUUCC: 1.17
CUGUGCUACACAUCGUAUGUACCGAAUCAAAGUGUGUGUGUGUGUAAAGUGUGUGUGUAAAAAAGUAUUAUGUUACGCCGUUCGGAUCUG: -0.803
GCAGGAAGUAAAAACAAAUGGAAAUGCUUCGGAUAGUGGCAGGGGUGGGGGUUGCUAAGGAAAGGGUGGGAAGGGAGUGGGUAAAGAGUU: 0.0648
CAAGUCCUGUGCUACACAUCGUAUGUACCGAAUCGGGUUGGGGUUGGGGUUGGGGAAAGUAUUAUGUUACGCCGUUCGGAUCUGCACUUC: 1.31
AGUCCUGUGCUACACAUCGUAUGUACCGAAUCAAACCCAAACCCCCCCAAAUUUAAAAAAGUAUUAUGUUACGCCGUUCGGAUCUGCACU: -0.202
ACCAUGCAGCUGGGCAUCUUUGGGAAGUGGGGCAAGGGGGGGAUAGGGAGGGGGGUAACACUUUGGGAACAGGUGGUCCCAGGUCGUUUC: 1.15
UCCUCAAGUCCUGUGCUACACAUCGUAUGUACCGAAUCGGAGGUGGAAAGGAAAGUAUUAUGUUACGCCGUUCGGAUCUGCACUUCCAGC: -0.57
